# Published values gathered from unrelated publications.
# Every numbered part comes from another study and shows a few of its results, in no order. Substitutions count along the parent as printed.
# UniProt P42336, sequence (whole entry, unmodified, looked up): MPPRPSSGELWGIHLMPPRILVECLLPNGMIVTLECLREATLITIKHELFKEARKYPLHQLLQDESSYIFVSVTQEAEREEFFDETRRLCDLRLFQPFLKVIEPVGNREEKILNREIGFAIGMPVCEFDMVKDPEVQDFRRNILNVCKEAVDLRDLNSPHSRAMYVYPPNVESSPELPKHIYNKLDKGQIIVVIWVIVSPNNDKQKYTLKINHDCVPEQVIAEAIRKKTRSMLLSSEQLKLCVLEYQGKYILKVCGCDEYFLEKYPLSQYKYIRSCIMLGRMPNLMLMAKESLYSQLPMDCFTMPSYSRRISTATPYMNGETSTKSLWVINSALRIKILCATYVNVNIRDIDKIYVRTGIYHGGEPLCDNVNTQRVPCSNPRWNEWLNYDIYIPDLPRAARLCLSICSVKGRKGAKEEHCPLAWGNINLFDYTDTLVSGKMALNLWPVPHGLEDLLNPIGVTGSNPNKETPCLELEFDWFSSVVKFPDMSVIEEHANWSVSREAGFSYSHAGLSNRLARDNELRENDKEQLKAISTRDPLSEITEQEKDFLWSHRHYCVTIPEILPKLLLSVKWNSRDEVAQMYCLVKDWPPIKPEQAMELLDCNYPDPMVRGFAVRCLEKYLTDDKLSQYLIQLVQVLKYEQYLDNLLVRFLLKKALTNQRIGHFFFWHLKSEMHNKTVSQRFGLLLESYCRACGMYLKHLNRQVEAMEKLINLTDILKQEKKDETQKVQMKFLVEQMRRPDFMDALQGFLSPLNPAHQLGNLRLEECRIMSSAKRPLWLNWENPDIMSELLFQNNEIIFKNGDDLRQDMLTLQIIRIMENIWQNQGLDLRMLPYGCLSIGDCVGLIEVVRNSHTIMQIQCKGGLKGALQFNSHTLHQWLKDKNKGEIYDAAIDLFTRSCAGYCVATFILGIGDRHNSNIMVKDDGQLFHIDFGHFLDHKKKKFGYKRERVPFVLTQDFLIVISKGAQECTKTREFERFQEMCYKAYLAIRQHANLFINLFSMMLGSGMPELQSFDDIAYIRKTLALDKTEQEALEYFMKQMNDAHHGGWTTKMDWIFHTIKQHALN
# UniProt P49840, sequence (whole entry, looked up): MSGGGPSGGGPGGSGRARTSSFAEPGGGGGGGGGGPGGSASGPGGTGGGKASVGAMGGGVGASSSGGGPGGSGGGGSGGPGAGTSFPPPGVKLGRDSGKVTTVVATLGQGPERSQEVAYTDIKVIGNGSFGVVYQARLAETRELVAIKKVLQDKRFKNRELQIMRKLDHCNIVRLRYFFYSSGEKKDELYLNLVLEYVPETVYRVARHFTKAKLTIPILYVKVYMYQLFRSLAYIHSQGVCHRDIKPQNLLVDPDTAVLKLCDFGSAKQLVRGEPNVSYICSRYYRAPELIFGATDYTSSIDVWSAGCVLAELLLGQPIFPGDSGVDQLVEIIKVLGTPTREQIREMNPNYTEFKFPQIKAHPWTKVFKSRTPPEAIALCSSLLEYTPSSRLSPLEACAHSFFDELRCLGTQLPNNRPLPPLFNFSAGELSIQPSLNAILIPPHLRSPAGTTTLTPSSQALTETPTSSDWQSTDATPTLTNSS
# UniProt Q9UQ88, sequence (whole entry, looked up): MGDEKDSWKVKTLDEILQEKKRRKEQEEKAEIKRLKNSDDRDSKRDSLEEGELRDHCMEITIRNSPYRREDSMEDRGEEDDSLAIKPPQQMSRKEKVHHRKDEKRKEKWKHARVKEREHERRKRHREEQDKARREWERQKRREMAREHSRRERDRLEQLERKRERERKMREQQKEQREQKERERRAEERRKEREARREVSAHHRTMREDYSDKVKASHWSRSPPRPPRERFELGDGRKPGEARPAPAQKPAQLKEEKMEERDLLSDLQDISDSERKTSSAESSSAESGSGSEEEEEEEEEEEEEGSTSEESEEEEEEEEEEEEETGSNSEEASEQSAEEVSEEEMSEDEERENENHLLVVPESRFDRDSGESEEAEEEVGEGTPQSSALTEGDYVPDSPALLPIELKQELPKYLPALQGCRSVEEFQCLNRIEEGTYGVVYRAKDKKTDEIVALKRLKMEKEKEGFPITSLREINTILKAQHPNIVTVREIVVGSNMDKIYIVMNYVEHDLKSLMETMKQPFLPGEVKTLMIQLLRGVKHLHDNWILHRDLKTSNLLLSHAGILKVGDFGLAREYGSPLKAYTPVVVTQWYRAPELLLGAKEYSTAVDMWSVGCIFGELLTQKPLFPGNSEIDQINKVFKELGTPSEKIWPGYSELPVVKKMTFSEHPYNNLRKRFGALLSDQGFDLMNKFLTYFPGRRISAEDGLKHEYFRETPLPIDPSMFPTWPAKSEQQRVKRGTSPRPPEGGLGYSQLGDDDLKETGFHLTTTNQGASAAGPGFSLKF
# UniProt O75676, sequence (whole entry, looked up): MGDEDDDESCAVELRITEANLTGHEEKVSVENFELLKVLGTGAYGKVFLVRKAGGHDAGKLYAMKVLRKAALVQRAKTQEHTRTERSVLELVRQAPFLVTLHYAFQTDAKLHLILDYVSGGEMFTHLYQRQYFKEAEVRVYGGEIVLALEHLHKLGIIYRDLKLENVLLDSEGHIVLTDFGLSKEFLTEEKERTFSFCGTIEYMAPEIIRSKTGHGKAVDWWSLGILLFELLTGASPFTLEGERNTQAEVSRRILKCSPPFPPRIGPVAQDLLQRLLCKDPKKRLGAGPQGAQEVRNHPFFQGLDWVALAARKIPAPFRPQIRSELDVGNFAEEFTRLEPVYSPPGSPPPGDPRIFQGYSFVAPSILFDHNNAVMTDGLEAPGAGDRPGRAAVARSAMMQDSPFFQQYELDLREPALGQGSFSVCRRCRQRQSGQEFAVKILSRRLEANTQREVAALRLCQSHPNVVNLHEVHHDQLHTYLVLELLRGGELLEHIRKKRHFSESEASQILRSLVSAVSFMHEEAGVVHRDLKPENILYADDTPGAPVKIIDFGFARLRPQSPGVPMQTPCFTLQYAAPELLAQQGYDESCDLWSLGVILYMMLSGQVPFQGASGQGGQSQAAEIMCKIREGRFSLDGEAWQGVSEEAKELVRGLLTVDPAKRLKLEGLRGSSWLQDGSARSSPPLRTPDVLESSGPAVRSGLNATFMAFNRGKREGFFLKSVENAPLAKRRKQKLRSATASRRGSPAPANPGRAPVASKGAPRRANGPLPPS
# UniProt Q9UM73, sequence (whole entry, looked up): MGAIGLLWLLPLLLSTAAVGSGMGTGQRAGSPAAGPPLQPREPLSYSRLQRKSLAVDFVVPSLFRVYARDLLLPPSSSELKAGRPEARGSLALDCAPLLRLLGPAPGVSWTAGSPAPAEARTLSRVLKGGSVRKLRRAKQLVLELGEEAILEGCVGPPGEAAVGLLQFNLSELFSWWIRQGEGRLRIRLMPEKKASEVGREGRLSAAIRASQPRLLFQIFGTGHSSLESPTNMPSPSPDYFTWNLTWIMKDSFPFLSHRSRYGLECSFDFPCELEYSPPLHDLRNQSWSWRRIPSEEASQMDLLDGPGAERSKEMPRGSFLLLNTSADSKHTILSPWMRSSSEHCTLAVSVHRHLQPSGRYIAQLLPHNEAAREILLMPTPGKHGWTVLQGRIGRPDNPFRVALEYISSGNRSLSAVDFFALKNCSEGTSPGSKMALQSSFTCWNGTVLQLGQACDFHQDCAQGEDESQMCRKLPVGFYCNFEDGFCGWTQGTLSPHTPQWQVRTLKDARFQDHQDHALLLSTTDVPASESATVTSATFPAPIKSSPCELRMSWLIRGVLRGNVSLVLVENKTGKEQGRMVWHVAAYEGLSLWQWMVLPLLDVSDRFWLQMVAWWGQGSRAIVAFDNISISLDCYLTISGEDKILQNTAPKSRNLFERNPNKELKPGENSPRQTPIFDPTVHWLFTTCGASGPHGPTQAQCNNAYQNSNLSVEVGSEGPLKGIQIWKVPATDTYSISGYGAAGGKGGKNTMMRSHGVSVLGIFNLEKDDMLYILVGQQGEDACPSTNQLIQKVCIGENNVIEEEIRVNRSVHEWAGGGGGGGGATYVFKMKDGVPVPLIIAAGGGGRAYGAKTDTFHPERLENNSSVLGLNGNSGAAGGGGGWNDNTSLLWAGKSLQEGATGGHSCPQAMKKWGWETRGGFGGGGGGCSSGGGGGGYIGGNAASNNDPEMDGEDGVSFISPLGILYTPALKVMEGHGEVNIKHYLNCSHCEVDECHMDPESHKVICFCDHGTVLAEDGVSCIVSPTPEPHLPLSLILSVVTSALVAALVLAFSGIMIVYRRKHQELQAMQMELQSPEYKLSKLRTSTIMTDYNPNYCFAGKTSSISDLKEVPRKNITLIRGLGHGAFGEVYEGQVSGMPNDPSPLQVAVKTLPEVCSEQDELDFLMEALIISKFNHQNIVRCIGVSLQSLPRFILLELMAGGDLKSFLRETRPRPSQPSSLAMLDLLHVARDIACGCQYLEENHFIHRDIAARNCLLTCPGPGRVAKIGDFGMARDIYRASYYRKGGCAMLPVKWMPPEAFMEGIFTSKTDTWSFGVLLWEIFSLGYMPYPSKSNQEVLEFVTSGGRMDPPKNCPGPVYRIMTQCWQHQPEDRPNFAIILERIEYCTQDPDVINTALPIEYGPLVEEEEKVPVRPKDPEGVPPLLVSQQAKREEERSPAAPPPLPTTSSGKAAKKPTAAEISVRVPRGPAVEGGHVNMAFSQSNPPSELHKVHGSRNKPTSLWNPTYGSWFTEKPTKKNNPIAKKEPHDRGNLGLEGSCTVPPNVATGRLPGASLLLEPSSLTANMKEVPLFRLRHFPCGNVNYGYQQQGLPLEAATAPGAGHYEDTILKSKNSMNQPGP
# UniProt Q6P2M8, sequence (whole entry, looked up): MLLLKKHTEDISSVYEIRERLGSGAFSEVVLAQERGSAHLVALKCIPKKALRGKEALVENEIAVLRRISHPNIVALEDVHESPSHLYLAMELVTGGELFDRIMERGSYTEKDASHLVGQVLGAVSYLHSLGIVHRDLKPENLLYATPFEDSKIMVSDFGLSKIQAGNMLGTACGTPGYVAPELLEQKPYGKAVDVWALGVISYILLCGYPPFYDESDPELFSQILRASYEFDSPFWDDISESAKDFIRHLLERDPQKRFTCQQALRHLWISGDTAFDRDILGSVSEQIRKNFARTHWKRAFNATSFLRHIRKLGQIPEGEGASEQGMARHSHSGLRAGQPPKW

# Block 1 — technique: competition with immobilised ligand; concentration: 1 µM
# Compound: N#CC1(c2ccccn2)CCN(Cc2cc(C(=O)O)c(=O)n3ccccc23)CC1
target,test,remaining binding [%]
"PIK3CA (Homo sapiens, UniProt P42336, E545K)",cell-free assay,100
"eIF-2-alpha kinase GCN2, C-terminal kinase domain (EIF2AK4, Homo sapiens, UniProt Q9P2K8, S808G)",cell-free assay,100
"PIK3CA (Homo sapiens, UniProt P42336, H1047Y)",cell-free assay,100
"CAMK4 (Homo sapiens, UniProt Q16566)",cell-free assay,84
"Ribosomal protein S6 kinase alpha-4, N-terminal kinase domain (RPS6KA4, Homo sapiens, UniProt O75676)",cell-free assay,94
"PNCK (Homo sapiens, UniProt Q6P2M8)",cell-free assay,100
"STK32B (Homo sapiens, UniProt Q9NY57)",cell-free assay,100
"IRAK3 (Homo sapiens, UniProt Q9Y616)",cell-free assay,100
"RIPK1 (Homo sapiens, UniProt Q13546)",cell-free assay,100
"EIF2AK2 (Homo sapiens, UniProt P19525)",cell-free assay,95
"ERBB3 (Homo sapiens, UniProt P21860)",cell-free assay,100
"EGFR (Homo sapiens, UniProt P00533, A750P/del747-749)",cell-free assay,80
"CDK11A (Homo sapiens, UniProt Q9UQ88)",binding,100
"ALK (Homo sapiens, UniProt Q9UM73)",cell-free assay,100

# Block 2 — target: CCNF, cyclin fold, Cln2 fusion (human); technique: yeast growth competition, sequencing; medium: yeast; notes: strong parent motif; baseline: not given; direction: higher = stronger binding; parent: viral docking peptide; PTARRRLLHDLDT
Variant,normalised enrichment score
L11A,2.32
L7A,0.883
H9A,3.78
H9F,8.84
D12A,1.73

# Block 3 — technique: EMSA with sequencing; molecule type: double-stranded DNA, one strand shown; medium: in vitro; concentration: 10 and 20 nM; baseline: negative control set to 0; direction: higher = stronger binding
# Target: Hepatocyte nuclear factor 3-alpha (Foxa1, Mus musculus, UniProt P35582, residues 1-468, full length assumed)
# Notes: whole designed probe, mean of two concentrations, ends assumed
# Residues (chain): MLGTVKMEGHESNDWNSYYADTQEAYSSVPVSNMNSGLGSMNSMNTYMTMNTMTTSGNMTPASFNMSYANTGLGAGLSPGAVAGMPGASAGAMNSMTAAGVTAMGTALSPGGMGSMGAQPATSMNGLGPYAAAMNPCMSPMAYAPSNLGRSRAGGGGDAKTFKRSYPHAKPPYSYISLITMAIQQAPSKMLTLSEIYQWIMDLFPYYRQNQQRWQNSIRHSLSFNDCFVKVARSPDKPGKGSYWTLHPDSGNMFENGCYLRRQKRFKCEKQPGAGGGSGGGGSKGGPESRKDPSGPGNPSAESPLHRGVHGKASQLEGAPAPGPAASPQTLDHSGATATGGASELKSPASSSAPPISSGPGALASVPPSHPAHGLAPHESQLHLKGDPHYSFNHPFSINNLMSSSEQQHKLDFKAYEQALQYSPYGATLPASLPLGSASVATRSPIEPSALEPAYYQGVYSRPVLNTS
Sequence,normalised bound fraction [ratio]
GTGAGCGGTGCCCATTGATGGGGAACGCAAATGGAGGGTGAAAAAGTCAGATTTTAGATCAGAGAATGTCATACCCTGAAATCAGCATGTTCTTAGTAGGGACATAAAATGGGGTTGTAAGATGACACAGACTGAGAGTAGCTCAAAGTTCAGGAGCCTGAGGGAGAAAGATAAACTTAAGTAAAGTTTGATTAAGAAATATTTTATTTTAGGCTGAGCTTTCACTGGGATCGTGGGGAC,0.0392
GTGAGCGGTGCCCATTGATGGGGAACTCTCTGCATTCCAAGCCGTTGCACCTGAACTCCCAACAATAACAGGGCGCTCTGAGACCTACCAGATGTACACAATGAATATCTTTATTTCCTTATTTATTTTTAGGTTTATGGGATTGTCCTGCTCCCTTTGAAGAGCAGGGATCATTATCCCCATTTTACAGATGGGGAAACAGAGACCTGGAGAAACATGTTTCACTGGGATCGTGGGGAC,0.251
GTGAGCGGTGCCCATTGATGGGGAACAGCGCAGCCTAGAGGAGATAGGTGATGCCTGAAGCCATGAGAAGGGGTGTTATCTCTGCAGGAAGAAGAATTGCAACACTCCTCCCAGCTGAGCAATCTGTCTGGGCTGGGATGTGAGTGGTATCACACTCTGCACTCACTTCCTCCTTCAGTGGTCATTTGAGAGTTCACTGGGGCTGACCTACCCCATTGGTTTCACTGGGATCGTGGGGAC,-0.0829
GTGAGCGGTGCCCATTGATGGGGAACTCAGTGTCAAGAAGTATTTGCCAATTTCTATGAAACTGTGAACGTAAAGAAAGGCCTGTGAGTCATAAGTACAGGAGAGGAAATTAACTGCAATATTTACTGTGCAGATTCTGATTCACTACTGTTTTGGGACAAAGCCTGGTTGCTGTTAGCAGATGCATTTACATTCTGCTGGAAGCTCAATCTTATCAAGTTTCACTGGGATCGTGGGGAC,0.0918
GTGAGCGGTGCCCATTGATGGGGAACCTTGCTGATTGCTAGCACAGCAGTCTGAGATCAAACTGCAAGGCGGCAGCAAGGCTGGGGGAGGGGCGCCCGCGTTTGCCCAGGCTTGCTTAGGTAAACAAAGCAGCCTGGAAGCTCGTACTGGGTGGAGCCCACGACGCTCAAGGAGGCCTGCCTGCCTCTGTAGGCTCCACCTCTGGGGGCAGGGCACAGATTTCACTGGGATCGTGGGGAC,0.542
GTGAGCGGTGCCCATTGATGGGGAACCTTGCTTACTGCTAGCACAGCAGTCTGAGATGCATCTGCGAGGCGGCAGCCTGGCTGGGGGAGGGGTATCCGCGTTTGCTGAGGCTTGAGTAGGTAAACAAAGCAGCCAGGAAGCTCGAACTGGGCGGAGCCCACCTCAGCTCAACAACGCCTACTGCCTCTAGACTCCACCTCTGTGGGCAGGGCACAGCTGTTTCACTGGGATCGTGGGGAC,0.41
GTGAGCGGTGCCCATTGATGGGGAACGTAGGTGACTCAGCTTCCTGCAACCTCGCTGGGGAAATTTCTCCAAATATTAATGCATGCCACGTAAGCCAGGTTCACTTGCTGGCCCTGGATGTTTATTCTGGCCCCCAGTTATATTTATTTTGTGTCTGGTAGAGCCTCACACTTCAAAGTGGAATGCTCCTGAAGTTTCTACCTGGCCTCTCATCCCAGTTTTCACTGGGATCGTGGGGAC,0.351
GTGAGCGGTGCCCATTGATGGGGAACTTCCTTTATCCCAACAAGATTATACAGACAAAACCAGGTTAAAATCGACACAAGGTCAACTTGAAATGGGGAAAGAGGAAGGTGACGTCACAAAATAATCTTGAAGTCTTGTGTACAAGCATCTGCAGAAGAGTTCAGCCTCACCACTTGGGTAATGCTGTTGGAATGTGGTCTGGGTTCACTGTATTTGAATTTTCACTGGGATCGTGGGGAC,-0.00807

# Block 4 — read-out: enzyme activity; mode: inhibitor; concentration: 0.5 µM; baseline: control
# SMILES: O=C1NC(=O)c2c1c1c3ccccc3n3c1c1c2c2ccccc2n1[C@H]1CC[C@@H]3O1
target,remaining activity [%]
"RPS6KA1 (Homo sapiens, UniProt Q15418)",1.58
"GSK3A (Homo sapiens, UniProt P49840)",2.19
"CSF1R (Homo sapiens, UniProt P07333)",29.3
"PRKCE (Homo sapiens, UniProt Q02156)",28.4

# For quick reference, copied from above (block 3):
Sequence,normalised bound fraction [ratio]
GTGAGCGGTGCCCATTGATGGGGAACTCTCTGCATTCCAAGCCGTTGCACCTGAACTCCCAACAATAACAGGGCGCTCTGAGACCTACCAGATGTACACAATGAATATCTTTATTTCCTTATTTATTTTTAGGTTTATGGGATTGTCCTGCTCCCTTTGAAGAGCAGGGATCATTATCCCCATTTTACAGATGGGGAAACAGAGACCTGGAGAAACATGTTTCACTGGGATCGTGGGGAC,0.251
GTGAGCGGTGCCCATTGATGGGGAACAGCGCAGCCTAGAGGAGATAGGTGATGCCTGAAGCCATGAGAAGGGGTGTTATCTCTGCAGGAAGAAGAATTGCAACACTCCTCCCAGCTGAGCAATCTGTCTGGGCTGGGATGTGAGTGGTATCACACTCTGCACTCACTTCCTCCTTCAGTGGTCATTTGAGAGTTCACTGGGGCTGACCTACCCCATTGGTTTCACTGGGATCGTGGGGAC,-0.0829
